Published values from different studies.
Each line is one published result; not all experiments were run side by side. Numbers after ± are the reported error.
CYP3A4: Cytochrome P450 3A4 (CYP3A4, Homo sapiens, UniProt P08684)
Sequence of UniProt P08684 (whole entry, looked up): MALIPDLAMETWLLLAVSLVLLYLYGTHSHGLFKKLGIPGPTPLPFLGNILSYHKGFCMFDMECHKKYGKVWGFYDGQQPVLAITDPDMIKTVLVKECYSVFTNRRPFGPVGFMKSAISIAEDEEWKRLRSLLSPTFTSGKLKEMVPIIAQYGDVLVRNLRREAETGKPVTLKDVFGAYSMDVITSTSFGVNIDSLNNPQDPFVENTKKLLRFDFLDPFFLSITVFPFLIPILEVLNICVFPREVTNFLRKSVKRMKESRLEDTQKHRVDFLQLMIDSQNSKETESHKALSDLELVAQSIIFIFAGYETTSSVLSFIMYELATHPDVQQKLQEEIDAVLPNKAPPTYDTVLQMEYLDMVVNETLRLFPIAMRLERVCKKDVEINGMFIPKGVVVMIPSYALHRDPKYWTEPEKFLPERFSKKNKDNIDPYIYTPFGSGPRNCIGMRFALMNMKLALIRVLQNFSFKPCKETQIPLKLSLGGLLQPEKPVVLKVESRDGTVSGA
Sequence of UniProt P05177 (whole entry, looked up): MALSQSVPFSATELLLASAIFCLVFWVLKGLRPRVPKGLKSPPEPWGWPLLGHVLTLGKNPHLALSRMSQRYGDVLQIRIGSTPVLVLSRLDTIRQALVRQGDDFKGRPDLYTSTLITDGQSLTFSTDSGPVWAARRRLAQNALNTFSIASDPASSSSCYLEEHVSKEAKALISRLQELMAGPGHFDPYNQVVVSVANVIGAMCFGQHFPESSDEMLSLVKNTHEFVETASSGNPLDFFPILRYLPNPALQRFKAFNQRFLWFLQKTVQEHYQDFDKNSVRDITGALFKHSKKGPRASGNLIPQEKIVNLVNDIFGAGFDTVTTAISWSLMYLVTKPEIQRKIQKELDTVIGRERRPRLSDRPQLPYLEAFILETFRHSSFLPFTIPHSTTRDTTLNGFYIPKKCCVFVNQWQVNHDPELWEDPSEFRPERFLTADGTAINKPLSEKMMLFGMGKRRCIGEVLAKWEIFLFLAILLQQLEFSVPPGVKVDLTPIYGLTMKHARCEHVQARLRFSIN
Sequence of UniProt P22413 (whole entry, looked up): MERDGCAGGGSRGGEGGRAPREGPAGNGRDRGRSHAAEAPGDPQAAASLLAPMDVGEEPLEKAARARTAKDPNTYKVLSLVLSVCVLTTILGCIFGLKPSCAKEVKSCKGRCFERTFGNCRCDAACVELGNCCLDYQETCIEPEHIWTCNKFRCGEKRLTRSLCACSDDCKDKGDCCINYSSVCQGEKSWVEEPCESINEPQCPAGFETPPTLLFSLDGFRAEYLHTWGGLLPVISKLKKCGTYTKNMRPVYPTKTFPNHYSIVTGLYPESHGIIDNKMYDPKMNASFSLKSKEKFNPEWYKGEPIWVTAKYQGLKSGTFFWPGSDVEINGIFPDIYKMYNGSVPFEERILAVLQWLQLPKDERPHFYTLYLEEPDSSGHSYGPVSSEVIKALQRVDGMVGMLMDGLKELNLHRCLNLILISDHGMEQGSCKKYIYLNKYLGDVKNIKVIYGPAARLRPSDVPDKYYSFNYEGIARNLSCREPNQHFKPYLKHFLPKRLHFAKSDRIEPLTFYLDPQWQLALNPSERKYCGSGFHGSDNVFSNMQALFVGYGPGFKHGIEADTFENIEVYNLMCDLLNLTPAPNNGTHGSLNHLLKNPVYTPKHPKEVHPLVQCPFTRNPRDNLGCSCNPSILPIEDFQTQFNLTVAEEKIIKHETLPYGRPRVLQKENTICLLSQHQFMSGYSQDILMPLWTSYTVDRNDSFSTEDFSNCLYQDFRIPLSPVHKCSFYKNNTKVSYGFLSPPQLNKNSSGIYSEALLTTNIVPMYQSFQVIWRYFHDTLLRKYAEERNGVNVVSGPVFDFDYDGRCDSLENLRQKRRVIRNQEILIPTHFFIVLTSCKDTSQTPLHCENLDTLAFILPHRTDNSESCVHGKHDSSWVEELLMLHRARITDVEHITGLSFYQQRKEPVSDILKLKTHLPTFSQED
Sequence of UniProt Q4GZT4 (whole entry, looked up): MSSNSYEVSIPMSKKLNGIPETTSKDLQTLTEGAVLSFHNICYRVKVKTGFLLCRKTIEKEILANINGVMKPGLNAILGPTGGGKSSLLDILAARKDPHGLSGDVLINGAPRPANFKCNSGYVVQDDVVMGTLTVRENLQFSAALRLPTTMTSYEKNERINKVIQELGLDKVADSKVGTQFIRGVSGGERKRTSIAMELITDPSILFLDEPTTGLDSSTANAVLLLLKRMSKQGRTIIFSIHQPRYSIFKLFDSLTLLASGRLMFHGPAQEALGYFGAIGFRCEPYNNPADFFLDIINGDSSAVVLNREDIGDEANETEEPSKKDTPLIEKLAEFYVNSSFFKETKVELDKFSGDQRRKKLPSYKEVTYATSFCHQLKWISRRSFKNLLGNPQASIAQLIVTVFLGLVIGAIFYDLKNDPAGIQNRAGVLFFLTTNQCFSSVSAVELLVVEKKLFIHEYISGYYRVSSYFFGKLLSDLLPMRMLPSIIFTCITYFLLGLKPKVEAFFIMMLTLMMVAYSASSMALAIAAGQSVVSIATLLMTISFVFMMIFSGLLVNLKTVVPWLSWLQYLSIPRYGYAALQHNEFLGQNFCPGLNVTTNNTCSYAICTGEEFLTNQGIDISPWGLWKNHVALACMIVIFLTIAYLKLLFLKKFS

For `C=CC(=O)N1CCN(c2nc(OC[C@@H]3CCCN3C)nc3c(F)c(-c4nc(N)cc(C)c4C(F)(F)F)c(Cl)cc23)[C@@H](C)C1`, the half-life was 0.857 h (glutathione; reaction with glutathione, HPLC; pH 7.4, 37 °C, added: 5 mM glutathione).
The terminal half-life of `C=CC(=O)N1C[C@H](Nc2ncnc3[nH]ccc23)CC[C@@H]1C` is reported as 1.1 ± 0.1 h (CYP3A; substrate; human; oral, 30 mg single dose, cpd alone).
The AUC(0-t) of `CC[C@H]1[C@@H](O)[C@@H]2[C@H](CC[C@]3(C)[C@@H]([C@H](C)CCNC(=O)NS(=O)(=O)c4ccc(C(C)(C)C)cc4)CC[C@@H]23)[C@@]2(C)CC[C@@H](O)C[C@@H]12` is reported as 404 ng·h/mL (CYP3A4; human, plasma; dose not given, geometric mean, alone).
`Nc1nc2c(ncn2[C@@H]2O[C@@H]3COP(=O)(O)O[C@@H]4[C@@H](O)[C@H](n5cnc6c(N)ncnc65)O[C@@H]4COP(=O)(O)O[C@@H]2[C@@H]3O)c(=O)[nH]1` has a stability time of no less than 8 h (ENPP1 (Homo sapiens, UniProt P22413); substrate; 100 µM).
The Tmax of `Cn1c(=O)c2c(ncn2C)n(C)c1=O` is reported as 1 h (Cytochrome P450 1A2 (CYP1A2, Homo sapiens, UniProt P05177); human, plasma; oral, 200 mg, day 1, alone, median).
With `CN1C[C@@H]2C[C@H]1CN2c1cc2c(cc1F)c(=O)c(C(=O)O)cn2C1CC1` the efflux ratio was 2.38 ± 0.64 (Broad substrate specificity ATP-binding cassette transporter ABCG2 (ABCG2, Bos taurus, UniProt Q4GZT4); transepithelial transport; MDCK-II transduced with ABCG2; 10 µM, 4 h; relative to: B-A over A-B).
`Cc1cc(Nc2ncnc3ccc(NC4=NC(C)(CO)CO4)cc23)ccc1Oc1ccn2ncnc2c1` (centres unmarked): “AUC(0-inf) (geometric mean)” 512 ng·h/mL (CYP3A4; human, plasma; oral, 300 mg tucatinib single dose, day 1, tucatinib alone).
The VT of `Cc1ccnc([18F])c1-c1cccc(N2C[C@H](N3CCN(C(=O)c4nccs4)CC3)CC2=O)c1` is reported as 5.41 mL/cm3 (monoacylglycerol lipase; PET, arterial input; rhesus monkey, brain hippocampus; intravenous, baseline).

Some of these lines once more:
The VT of `Cc1ccnc([18F])c1-c1cccc(N2C[C@H](N3CCN(C(=O)c4nccs4)CC3)CC2=O)c1` is reported as 5.41 mL/cm3 (monoacylglycerol lipase; PET, arterial input; rhesus monkey, brain hippocampus; intravenous, baseline).
